# Results of several laboratories.
# Protocols differ between the studies behind these lines. ± marks the error that the study gave.
# Cell line: Caco-2
SMILES,assay,conditions,scale,quantity,value
CC1CN(C(C)CO)C(=O)c2cccc(N(C)C(=O)c3ccncc3)c2OC1CN(C)Cc1ccc(Oc2ccccc2)cc1 (centres unmarked),,"time not given, apical pH 6.5, basolateral pH 7.4",,mass recovery,74.5 ± 4%
N#Cc1cccc(-c2ccc(=O)n(Cc3cccc(-c4ncc(OCC5CCN(CC(=O)N6CCN(c7ccc8c(c7)C(=O)N(C7CCC(=O)NC7=O)C8=O)CC6)CC5)cn4)c3)n2)c1 (centres unmarked),transwell monolayer,"2 µM, 120 min, pH 7.4, 0.1% DMSO, together with: tariquidar 5 µM",,Papp A-B,0.05 ± 0.02 ×10⁻⁶ cm/s
CCCCC(CC)CNC(=N)NC(=N)NCCC (centres unmarked),,"5 µM, 2 h, basolateral to apical",,recovery,66.6%
CC(=O)N1CCC[C@H]1C(=O)N[C@@H](CC(C)C)C(=O)N[C@@H](Cc1cncn1CCCCCCCCc1ccccc1)C(=O)N[C@@H](CO)C(=O)N[C@H](C(N)=O)[C@@H](C)OP(=O)(O)O,,"10 µM, 2 h",,recovery B-A,72.1%
CCCCCCCCCOC(=O)c1ccc(O)cc1,,"5 µM, 60 min, A-B direction",,hydrolysed compound,20.7 ± 3.7%
CC[C@H](C)[C@@H](C(=O)N[C@@H](Cc1ccc(O)cc1)C(=O)N1CCC[C@H]1C(=O)N[C@@H](Cc1ccccc1)C(=O)O)n1cc(C(Cc2ccc(O)cc2)NC(=O)[C@@H](NC(=O)[C@H](CCCNC(=N)N)NC(=O)[C@@H](N)CC(=O)O)C(C)C)nn1 (some centres unmarked),"cell growth or viability, MTT","12.5 µM, 48 h",,viability,94.8%
O=C(Oc1ccccc1)c1ccc(O)cc1,,"5 µM, 1 h",,hydrolysis,11%
CNC(=O)C[C@H](Cc1ccc(C#N)cc1)NC(=O)c1cc(-c2ccc(CN[C@H](C)c3ccc(C)cc3)o2)ccc1Cl,,,reference: Papp B-A over Papp A-B,efflux ratio,1.6
c1cc2nc(c1)-c1cccc(n1)CCCc1ccc(cc1)OCCCCCCOc1ccc(cc1)CCC2,"cell growth or viability, MTT","100 µM, 48 h",,viability,61.9%
CNCc1ccc(-c2cc(=O)c3ccc4[nH]c(C(F)(F)F)nc4c3o2)cc1,,,,efflux ratio,193
CCCCCCCCCCCCOC(=O)c1ccc(O)cc1,,"5 µM, 60 min, A-B direction",,hydrolysed compound,0.8%
CNC(=N)NC(=N)NCCCCCCNC(=N)NC(=N)NC,,"5 µM, 2 h, apical to basolateral",,recovery,66.2%
CC(C)C(C)NC(=O)COC(=O)c1cc2c(s1)CCC2 (centres unmarked),,"25 µM, 2 h",,Papp,2.3 ×10⁻⁶ cm/s
CCC(CC)CNC(=N)NC(=N)NCCCCCCNC(=N)NC(=N)NCC(CC)CC,,"5 µM, 2 h, apical to basolateral",,recovery,81.3%
CC(C)OC(=O)c1ccc(O)cc1,,"5 µM, 60 min, A-B direction",,hydrolysed compound,10.4 ± 1.9%
COc1cc(-c2cncc(-c3ccc(C4CCN(C)CC4)cc3)c2C)cc(OC)c1OC,,"5 µM, 120 min, pH 7.4",,Papp B-A,8.1 ×10⁻⁶ cm/s
CCCCC(CC)CNC(=N)NC(=N)NCCCCCCCCNC(=N)NC(=N)NCC(CC)CCCC (centres unmarked),,"5 µM, 2 h, apical to basolateral",,recovery,< 22.3%

# Some of these lines once more:
SMILES,assay,conditions,scale,quantity,value
CCCCCCCCCOC(=O)c1ccc(O)cc1,,"5 µM, 60 min, A-B direction",,hydrolysed compound,20.7 ± 3.7%
CC[C@H](C)[C@@H](C(=O)N[C@@H](Cc1ccc(O)cc1)C(=O)N1CCC[C@H]1C(=O)N[C@@H](Cc1ccccc1)C(=O)O)n1cc(C(Cc2ccc(O)cc2)NC(=O)[C@@H](NC(=O)[C@H](CCCNC(=N)N)NC(=O)[C@@H](N)CC(=O)O)C(C)C)nn1 (some centres unmarked),"cell growth or viability, MTT","12.5 µM, 48 h",,viability,94.8%
